Experimental data pooled from the literature.
pKd: −log10 of the molar value.
T1: G-quadruplex DNA G6A/G17A (Homo sapiens); AAGGGAGGGCGGCGGGACA
T2: G-quadruplex DNA (Homo sapiens); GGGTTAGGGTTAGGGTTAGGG
T3: G-quadruplex DNA (Homo sapiens); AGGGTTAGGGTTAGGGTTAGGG
T4: G-quadruplex DNA, quadruplex; GGTTGGTGTGGTTGG
T5: G-quadruplex DNA, parallel; GGGTAGGGCGGGTTGGGA
T6: G-quadruplex DNA central-tetrad variant; GAGTGGGAAGGGTGGGA
T7: G-quadruplex DNA, G-quadruplex (Homo sapiens); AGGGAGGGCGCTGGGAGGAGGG
T8: G-quadruplex DNA, parallel (Homo sapiens); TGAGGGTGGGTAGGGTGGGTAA

With `Nc1nc2c(ncn2COCCO)c(=O)[nH]1` the pKd was 5.38 (T1, G-quadruplex DNA G6A/G17A (Homo sapiens); microscale thermophoresis; pH 7, KCl 37.5 mM).
`C=Cc1c(C)c2cc3c(C=C)c(C)c(cc4nc(cc5nc(cc1[nH]2)C(C)=C5CCC(=O)O)C(CCC(=O)O)=C4C)n3C`: “melting temperature shift” 0.3 °C (T2, G-quadruplex DNA (Homo sapiens); FRET melting; 1 µM, pH 7.2, Na+ 50 mM; higher = more stabilisation).
For `COc1ccc2c(c[n+](C)c3c4cc5c(cc4ccc23)OCO5)c1OC`, the displacement was 63.1% (T3, G-quadruplex DNA (Homo sapiens); competitor, fluorescent dye displacement; 0.40 µM, pH 7.43, room temperature, K+ 100 mM; higher = more displacement).
`CC(C)C[C@H](NC(=O)[C@H](CCCNC(=N)N)NC(=O)[C@H](Cc1ccc(O)cc1)NC(=O)[C@H](Cc1ccccc1)NC(=O)[C@H](CCCNC(=N)N)NC(=O)[C@@H](N)Cc1c[nH]cn1)C(=O)N[C@@H](C)C(=O)N[C@@H](CC(N)=O)C(=O)O` has a pKd of 4.26 (T4, G-quadruplex DNA, quadruplex; ITC; pH 7.06, 25 °C, NaCl 150 mM, without K+).
Under “melting temperature shift”, `C[n+]1ccc(-c2c3nc(c(-c4cc[n+](C)cc4)c4ccc([n-]4)c(-c4cc[n+](C)cc4)c4nc(c(-c5cc[n+](C)cc5)c5ccc2[n-]5)C=C4)C=C3)cc1.[Zn+2]` is recorded as 16.4 °C (T2, G-quadruplex DNA (Homo sapiens); FRET melting; 1 µM, pH 7.2, Na+ 50 mM; higher = more stabilisation).
`C=CC1=C(C)C2=Cc3c(C=C)c(C)c4[n]3[Fe]([Cl])[n]3c(c(C)c(CCC(=O)O)c3=CC3=NC(=C4)C(C)=C3CCC(=O)O)=CC1=N2` has a pKd of 7.52 (T5, G-quadruplex DNA, parallel; Soret absorption titration; pH 5.1, 25 °C, K+ 10 mM).
The pKd of `C=CC1=C(C)c2cc3[n-]c(cc4[n-]c(cc5nc(cc1n2)C(C)=C5C=C)c(C)c4CCC(=O)O)c(CCC(=O)O)c3C.[Cl-].[Fe+3]` is reported as 3.37 (T6, G-quadruplex DNA central-tetrad variant; Cy5 fluorescence quenching titration; pH 8, KCl 200 mM, with: MgCl2 1 mM).
For `COc1ccc2cc3[n+](cc2c1-c1ccc(N(C)C)cc1)CCc1cc2c(cc1-3)OCO2`, “melting temperature shift” read 4.7 °C (T7, G-quadruplex DNA, G-quadruplex (Homo sapiens); FRET melting; target 0.2 µM, pH 7.0, KCl 10 mM, ligand:DNA ratio 5; higher = more stabilisation).
`Nc1nc2c(ncn2[C@H]2C[C@H](O)[C@@H](COP(=O)(O)O)O2)c(=O)[nH]1` gave a pKd of 4.23 (T1, G-quadruplex DNA G6A/G17A (Homo sapiens); microscale thermophoresis; pH 7, KCl 37.5 mM).
`C[n+]1cc(NC(=O)c2ccc3ccc4ccc(C(=O)Nc5cc6ccccc6[n+](C)c5)nc4c3n2)cc2ccccc21` gave a pKd of 8.06 (T8, G-quadruplex DNA, parallel (Homo sapiens); Cy5 fluorescence quenching titration; 2 nM, pH 7.2, KCl 100 mM).
`Nc1nc2c(ncn2[C@@H]2O[C@H](COP(=O)(O)OP(=O)(O)OP(=O)(O)O)[C@@H](O)[C@H]2O)c(=O)[nH]1` has a pKd of 3.65 (T1, G-quadruplex DNA G6A/G17A (Homo sapiens); microscale thermophoresis; pH 7, KCl 37.5 mM).
`COc1ccc2cc3[n+](cc2c1OC)CCc1cc2c(cc1-3)OCO2`: “melting temperature shift” 2.5 °C (T7, G-quadruplex DNA, G-quadruplex (Homo sapiens); FRET melting; target 0.2 µM, pH 7.0, KCl 10 mM, ligand:DNA ratio 5; higher = more stabilisation).

Repeated from above:
`COc1ccc2cc3[n+](cc2c1OC)CCc1cc2c(cc1-3)OCO2`: “melting temperature shift” 2.5 °C (T7, G-quadruplex DNA, G-quadruplex (Homo sapiens); FRET melting; target 0.2 µM, pH 7.0, KCl 10 mM, ligand:DNA ratio 5; higher = more stabilisation).
